Measurements pooled from the literature.
Lines come from different studies, so protocols differ.
EGFR del746-750: Epidermal growth factor receptor (EGFR, Homo sapiens, UniProt P00533, del746-750)
EGFR G719S: Epidermal growth factor receptor (EGFR, Homo sapiens, UniProt P00533, G719S)

SMILES	target	read-out	method	tested at	relative to	remaining binding
CNC(=O)C1CCN(c2cc(C)c(F)cc2NC(=O)c2ccc(-c3cc(O)ccc3C)c(C)c2)CC1	Epidermal growth factor receptor (EGFR, Homo sapiens, UniProt P00533, G719C)	binding	competition with immobilised ligand	1 µM	–	65%
COc1c(Cl)cccc1Nc1c(-c2ccncc2C#C[C@@]2(C)CCCN2C(=O)/C=C/CN(C)C)[nH]c2c1C(=O)NCC2	EGFR del746-750	cell-free assay	competition with immobilised ligand	3 µM	–	0.15%
C=CC(=O)N1CCCC(n2c(=O)c3ncccc3n(Cc3ccc(Oc4ccccc4)cc3)c2=O)C1 (centres unmarked)	EGFR G719S	cell-free assay	competition with immobilised ligand	1 µM	–	81%
C=CC(=O)N1CCc2ccc(-n3c(=O)ccc4cnc5ccc(-c6cnn(C)c6)cc5c43)cc21	EGFR del746-750	–	KINOMEscan	1 µM	DMSO control	100%
CN1CCN(Cc2ccc(NC(=O)c3cccc(C#Cc4cnc(N)c5ncccc45)c3)cc2C(F)(F)F)CC1	Epidermal growth factor receptor (EGFR, Homo sapiens, UniProt P00533, L858R)	cell-free assay	competition with immobilised ligand	0.5 µM	–	18%
CCN1CCN(Cc2ccc(C(=O)Nc3ccc(C)c(NCc4cnc5[nH]ccc5c4OC)c3)cc2C(F)(F)F)CC1	Epidermal growth factor receptor (EGFR, Homo sapiens, UniProt P00533, L861Q)	binding	competition with immobilised ligand	1 µM	–	0%
CNC1C[S+]2CC[S+]3CC[S+](C1)[Ru-4]321([N]=C=S)[n]2c3ccc(OC)cc3c3c4c(c5cc(F)c[n+]1c5c32)C(=O)NC4=O (centres unmarked)	Epidermal growth factor receptor (EGFR, Homo sapiens, UniProt P00533, A750P/del747-749)	–	KinomeScan	0.1 µM	untreated	92%
CC(C)=CC1OC(C)(C)C2C=C3C(=O)C(Cl)=CC(O)C3C3C(O)C4OC4C(=O)C132 (centres unmarked)	Epidermal growth factor receptor (EGFR, Homo sapiens, UniProt P00533, T790M)	cell-free assay	competition with immobilised ligand	10 µM	–	90%
Cc1ccc(-c2c(/C=C(\C#N)C(=O)NC(C)C)n(CCCO)c3ncnc(N)c23)cc1	Epidermal growth factor receptor (EGFR, Homo sapiens, UniProt P00533)	cell-free assay	competition with immobilised ligand	1 µM	–	79%
Nc1ncc2c(n1)-c1c([nH]c3ccc(C4=CCOCC4)cc13)CCC2	Epidermal growth factor receptor (EGFR, Homo sapiens, UniProt P00533, del752-759)	binding	competition with immobilised ligand	1 µM	–	76%
CCN1CCN(Cc2ccc(NC(=O)c3ccc(C)c(NC(=O)c4cncc(-c5cccs5)c4)c3)cc2C(F)(F)F)CC1	EGFR G719S	binding	competition with immobilised ligand	1 µM	–	0.3%
